Experimental data of several laboratories.
Compare with care: the assays were run in different laboratories. Several values in a cell are separate wells, animals, samples, runs or records. Numbers after ± are the reported error. Converted amounts (≈) assume the structure as drawn.

`Cc1nc2n(c(=O)c1CCN1CCC(c3noc4cc(F)ccc34)CC1)CCCC2` has a Vmax of 2420 pmol/min/mg protein (H+/organic cation antiporter; cell uptake; hCMEC/D3).
`CCn1cc(-c2cc(Cn3ccnc3)cc3c2CCN([C@H](c2cc(OC)ccn2)C2CC2)C3=O)c(C(F)(F)F)n1` gave an EC50 of 2450 nM (G-401; cell growth, inhibitor; 120 h).
`CN[C@H](CC(C)C)C(=O)N[C@H]1C(=O)N[C@@H](CC(N)=O)C(=O)N[C@H]2C(=O)N[C@H]3C(=O)N[C@H](C(=O)N[C@H](C(=O)O)c4cc(O)cc(O)c4-c4cc3ccc4O)[C@H](O)c3ccc(c(Cl)c3)Oc3cc2cc(c3O[C@@H]2O[C@H](CO)[C@@H](O)[C@H](O)[C@H]2O[C@H]2C[C@](C)(N)[C@H](O)[C@H](C)O2)Oc2ccc(cc2Cl)[C@H]1O` has an MIC50 of 1 µg/mL (≈ 0.69 µM) (Streptococcus pyogenes; 10 isolates; serum 75%).
`O=C(CCCN1CCC(O)(c2ccc(Cl)cc2)CC1)c1ccc(F)cc1` gave a Km of 76.8 µM (H+/organic cation antiporter; cell uptake; hCMEC/D3).
For `CC(C)NCC(O)c1ccc(O)c(O)c1` (stereo not shown), the sarcomere length was 1.72 µm (ventricular cardiomyocytes, C57BL/6 mouse; dose not given, 0.424 s).
For `c1coc(-c2n[nH]cc2-c2ccnc3ccccc23)c1`, “log2 fold change” read -0.03 (RTK1 (Candida albicans); kinase binding, MIB/MS competition; Candida albicans lysate; 1 µM; baseline: DMSO).
For `COc1ccc2c(c1)N(C[C@H](C)CN(C)C)c1ccccc1S2`, the Vmax was 2000 pmol/min/mg protein (H+/organic cation antiporter; cell uptake; hCMEC/D3).
`NC(=O)c1cnc2[nH]ccc2c1N[C@@H]1[C@@H]2CC3C[C@H]1C[C@@](O)(C3)C2`: “total memory T-cell change” -0.93% (flow cytometry; Japanese healthy men, blood; oral, 100 mg twice daily, 72 h after day 7 dose; baseline: baseline).
With `CC1=NN(c2ccccn2)C(=O)C1=NNc1ccc(S(N)(=O)=O)cc1` the glucose uptake was 4.927 ± 0.000417% (Saccharomyces cerevisiae; 10 µg/mL).
For `O=C(O)CNC(=O)Cc1ccccc1`, the sarcomere length was 1.69 µm (ventricular cardiomyocytes, C57BL/6 mouse; dose not given, 0.8 s).
For `NC(=O)C1(N2CCCCC2)CCN(CCCC(=O)c2ccc(F)cc2)CC1`, the Vmax was 2040 pmol/min/mg protein (H+/organic cation antiporter; cell uptake; hCMEC/D3).
`Oc1ccccc1-c1n[nH]cc1-c1ccnc2ccccc12`: “log2 fold change” -0.04 (SAK1 (Candida albicans); kinase binding, MIB/MS competition; Candida albicans lysate; 1 µM; baseline: DMSO).
`CC[S+]([O-])c1nc(-c2ccccc2)cc(C(F)(F)F)n1` (stereo not shown): “cells with nuclear reporter” 44.6% and 47% and 46.4% and 30.5% (importin alpha/beta-1; cMyc nuclear import, high content imaging; HeLa Kyoto reporter; 5 µM, 2 h).
The MIC50 of `CC(=O)NC[C@H]1CN(c2ccc(N3CCOCC3)c(F)c2)C(=O)O1` is reported as 1 µg/mL (≈ 2.96 µM) (Streptococcus pyogenes; 10 isolates; pH 5.5).
For `CCS(=O)(=O)c1nc(C2CC2)cc(C(F)(F)F)n1`, “cells with nuclear reporter” read 97.3% and 85.8% and 71.2% and 86.4% (importin alpha/beta-1; cMyc nuclear import, high content imaging; HeLa Kyoto reporter; 0.158 µM, 2 h).
For `CC1=NN(c2ccc(Cl)cc2)C(=O)C1=NNc1ccc(S(N)(=O)=O)cc1`, the glucose uptake was 34.3% (Saccharomyces cerevisiae; 500 µg/mL).
`COc1cnc2cccc(N3CCc4c(cc(Cn5ccnc5C)cc4-c4cn(C)nc4C(F)(F)F)C3=O)c2c1` gave an EC50 of 18800 nM (C3A; cell growth, inhibitor; 120 h).
`Cn1cc(-c2ccc(-c3cncc(Cl)c3N3CCC4(CCNC4=O)CC3)cc2)cn1` — result for “log2 fold change”: 2.07 (COLO 205; gene expression, microarray, refers to: HSPA1B (HSPA1A) mRNA; concentration not given, 2 h; baseline: untreated cells).
For `CCCCN1CCCCC1C(=O)Nc1c(C)cccc1C` (stereo not shown), the Vmax was 641 pmol/min/mg protein (H+/organic cation antiporter; cell uptake; hCMEC/D3).
The EC50 of `CCn1cc(-c2cc(Cn3ccoc3=N)cc3c2CCN([C@@H](C)c2cc(OC)ccn2)C3=O)c(C(F)(F)F)n1` is reported as 955 nM (LS-513; cell growth, inhibitor; 120 h).
With `CC1=NN(c2cccc(C)c2)C(=O)C1=NNc1ccc(S(N)(=O)=O)cc1` the glucose uptake was 44.9% (Saccharomyces cerevisiae; 200 µg/mL).
`OC(CCN1CCCCC1)(c1ccccc1)C1CC2C=CC1C2` (stereo not shown): “change, Gamma power, EEG Pz-O1” 10% (resting-state EEG; healthy elderly humans; oral, 2 mg, eyes closed, LS mean; baseline: baseline).

A few entries again:
`CN[C@H](CC(C)C)C(=O)N[C@H]1C(=O)N[C@@H](CC(N)=O)C(=O)N[C@H]2C(=O)N[C@H]3C(=O)N[C@H](C(=O)N[C@H](C(=O)O)c4cc(O)cc(O)c4-c4cc3ccc4O)[C@H](O)c3ccc(c(Cl)c3)Oc3cc2cc(c3O[C@@H]2O[C@H](CO)[C@@H](O)[C@H](O)[C@H]2O[C@H]2C[C@](C)(N)[C@H](O)[C@H](C)O2)Oc2ccc(cc2Cl)[C@H]1O` has an MIC50 of 1 µg/mL (≈ 0.69 µM) (Streptococcus pyogenes; 10 isolates; serum 75%).
`O=C(CCCN1CCC(O)(c2ccc(Cl)cc2)CC1)c1ccc(F)cc1` gave a Km of 76.8 µM (H+/organic cation antiporter; cell uptake; hCMEC/D3).
